Experimental data pooled from the literature.
Lines come from different studies, so protocols differ. “And” joins repeats or separate records; there may be more than shown. ± gives the spread as reported.
MAPK8: Mitogen-activated protein kinase 8 (MAPK8, Homo sapiens, UniProt P45983)

C=CC(=O)N1C[C@H](C)N(c2nc(OC[C@@]34CCCN3C[C@H](F)C4)nc3c(F)c(-c4ccc(F)c5sc(N)c(C#N)c45)c(C(F)(F)F)cc23)C[C@H]1C — dissociation rate constant (GTPase KRas, GppNHp-bound (KRAS, Homo sapiens, UniProt P01116, G12D); binding): 0.221 ± 0.0038 s⁻¹
Cc1cn(CC(=O)N(CCNC(=O)CN(CCNC(=O)CN(CCNC(=O)CN(CCNC(=O)CN(CCNC(=O)CN(CCNC(=O)CN(CCNC(=O)CN(CCN)C(=O)Cn2cnc3c(=O)[nH]c(N)nc32)C(=O)Cn2cnc3c(N)ncnc32)C(=O)Cn2cc(C)c(=O)[nH]c2=O)C(=O)Cn2cnc3c(=O)[nH]c(N)nc32)C(=O)Cn2cc(C)c(=O)[nH]c2=O)C(=O)Cn2cnc3c(=O)[nH]c(N)nc32)C(=O)Cn2cnc3c(N)ncnc32)CC(=O)NCCN(CC(=O)NCCOCCOCC(N)=O)C(=O)Cn2cnc3c(N)ncnc32)c(=O)[nH]c1=O — ΔS (complementary RNA; duplex formation, UV melting curve fit; PBS; 1 µM): -163.4 ± 0.1 cal/mol/K
CN(C)c1ccc(-n2cc(COC(=O)[C@@]3(C)C=C(C(=O)OC(C)(C)C)C(=O)CC3)nn2)cc1 — fraction bound (MAPK8; D-peptide binding, inhibitor, FP peptide displacement; 50 µM; lower is stronger displacement): 0.526
N=C(N)NCCS(=O)(=O)O — fraction bound (Sodium- and chloride-dependent taurine transporter (SLC6A6, Homo sapiens, UniProt P31641, Y138A); binding, microscale thermophoresis; 33 nM, fitted curve; higher = more binding): 0
C[C@@H]1C[C@H](Nc2ccccc2)c2cc(F)ccc2N1C(=O)c1ccccc1 — pIC50 Z-score (Ecdysone receptor (Aedes albopictus, UniProt Q9U3Y4); ligand binding, inhibitor; intact cells; with: [3H]ponasterone A; direction not given): -1.23
CCOC(=O)C(CC)(CCCSCCOCCOCCN)NC(=O)c1ccc(C2CC2)c(Cc2ccc(F)cc2)n1 (racemic) — Emax (Cannabinoid receptor 2 (Cnr2, Mus musculus, UniProt P47936); cAMP, agonist): 93%
O=C(CN1CCOCC1)N1CCN(CC(OCc2ccc3ccccc3c2)c2ccc(Cl)cc2Cl)CC1 (stereo not shown) — activity vs control (Serine/threonine-protein kinase ULK1 (ULK1, Homo sapiens, UniProt O75385); enzyme activity, inhibitor, ADP detection; 0.1 µM): 107%
Cc1cc(C)cc(COc2cc3c(cc2OCc2cc(C)cc(C)c2)C2CC(O)(Cc4cn(CCOCCOCCNC(=O)CCCCC5SCC6NC(=O)NC65)nn4)CC(C)N2CC3)c1 (stereo not shown) — SILAC ratio (Programmed cell death protein 6 (Homo sapiens, UniProt O75340); biotinylated probe pull-down, item: PDCD6; 10 µM probe; reference: heavy over light): 2.04
CC[C@H](C)[C@@H]1NC(=O)[C@H](Cc2c[nH]c3ccccc23)NC(=O)[C@H](Cc2ccccc2)N(C)C(=O)[C@H](C(C)C)NC(=O)[C@H](CC(C)C)NC(=O)[C@H](Cc2ccccc2)NC(=O)CSC[C@@H](C(=O)N[C@@H](CC(N)=O)C(N)=O)NC(=O)[C@H](Cc2ccccc2)NC1=O — ΔTm (Stimulator of interferon genes protein (STING1, Homo sapiens, UniProt Q86WV6, H232R); thermal stability, DSF; 50 µM): 2.53 °C
COC1CN([C@H]2CC[C@H]([C@@]3(C)Oc4c(Cl)cc(C(=O)NCc5c(SC)cc(C)[nH]c5=O)c(C)c4O3)CC2)C1 — log2 fold change (RNA-seq, item: DIXDC1; human, whole blood; dose not given, 24 h; reference: pretreatment baseline): 1.05
C/C1=C\CC/C(C)=C/CC(C)(C)/C=C/C1 — remaining current fraction (Transient receptor potential cation channel subfamily V member 1 (Trpv1, Rattus norvegicus, UniProt O35433, S512A/T550A/Y511A); inhibitor, outside-out patch clamp; 100 µM, 5 min, vanilloid-site triple mutant, with: pH 5.5 activation): 0.07 ± 0.02
O=C1CCC(N2Cc3c(NC(=O)OCc4cc(C(=O)O)ccc4OP(=O)(O)O)cccc3C2=O)C(=O)N1 (stereo not shown) — drug formation rate (Alkaline phosphatase, placental type (Homo sapiens, UniProt P05187); substrate; 100 µM, pH 7.6, 37 °C): 2.24 pmol/min
COc1cc(Nc2nccc(-c3cnn4nc(OC)ccc34)n2)cc(C(F)(F)F)c1 — remaining binding (Tyrosine-protein kinase ABL1, non-phosphorylated (ABL1, Homo sapiens, UniProt P00519); binding, competition with immobilised ligand; 1 µM): 95%
COC(=O)[C@]1(Cc2ccccc2)C=C(C(=O)OC(C)(C)C)C(=O)CC1 — fraction bound (MAPK8; D-peptide binding, inhibitor, FP peptide displacement; 62.5 µM; lower is stronger displacement): -0.0532
O=C(CCCCCCS)Nc1ccccc1 — binding stoichiometry (Histone deacetylase 8 (HDAC8, Homo sapiens, UniProt Q9BY41); ITC; Tris-HCl buffer; concentration not given, 288 K): 0.9
C=CC(=O)N1CCCC(n2c(=O)c3ncccc3n(Cc3ccc(Oc4ccccc4)cc3)c2=O)C1 (stereo not shown) — melting temperature shift (NudC domain-containing protein 2 (NUDCD2, Homo sapiens, UniProt Q8WVJ2); thermal proteome profiling, item: NUDCD2; unit not given; reference: vehicle): -7.12
CCCCCC=CC=C1C(=O)C=CC1CC=CCCCC(=O)O (stereo not shown) — isoTOP-ABPP competition ratio (Small glutamine-rich tetratricopeptide repeat-containing protein alpha (Homo sapiens, UniProt O43765); competitive isoTOP-ABPP, item: SGTA cysteine peptide; Ramos soluble proteome; 100 µM, with: iodoacetamide probe; reference: DMSO over compound-treated, higher = stronger cysteine blockade): 2.3
COc1ccccc1-c1ccncc1C(=O)Nc1nnc(OCc2ccc(Cl)cc2)s1 — remaining activity (Bifunctional 3'-5' exonuclease/ATP-dependent helicase WRN, residues 500-946 (WRN, Homo sapiens, UniProt Q14191); ATPase activity, ADP-Glo; 0.12 µM; reference: 0 µM cpd): 110%
C=CC(=O)N1CCc2ccc(-n3c(=O)ccc4cnc5ccc(-c6cnn(C)c6)cc5c43)cc21 — remaining binding (Tyrosine-protein kinase ABL1, phosphorylated (ABL1, Homo sapiens, UniProt P00519, F317L); KINOMEscan, item: (F317L)-phosphorylated; 1 µM; reference: control): 91%
CCCCCCCCCCCCC/C=C/C=O — isoTOP-ABPP competition ratio (Importin subunit beta-1 (KPNB1, Homo sapiens, UniProt Q14974); competitive isoTOP-ABPP; Ramos soluble proteome; 100 µM, with: iodoacetamide probe; reference: DMSO over compound-treated, higher = stronger cysteine blockade): 1
C=C1CC2(C(=O)OC)C=C(C(=O)OC(C)(C)C)C(=O)C1C2 (stereo not shown) — fraction bound (MAPK8; D-peptide binding, inhibitor, FP peptide displacement; 1000 µM; lower is stronger displacement): 1.79e-16
CC(C)Oc1cc(Cl)ccc1CNc1cc(-c2ccccc2)nc2ncnn12 — cAMP luminescence (G-protein coupled receptor 3 (GPR3, Homo sapiens, UniProt P46089, Q215A); cAMP level, cAMP GloSensor; 10 nM; higher = more cAMP): 39500 a.u. and 34400 a.u. and 39000 a.u. and 39800 a.u. and 44800 a.u.
CCn1cc(-c2cccc(C(F)(F)F)c2)c2sc(C(=N)NC3CCS(=O)(=O)CC3)cc2c1=O — ΔTm (Bromodomain testis-specific protein, BD1 (BRDT, Homo sapiens, UniProt Q58F21)): 3.3 °C
CCCC1(C)C(=O)N(c2cccc(CN3CCN(Cc4ccc(Br)cc4)CC3)c2)C1=O — selectivity ratio (Dipeptidyl peptidase 8 (Homo sapiens, UniProt Q6V1X1); inhibitor; with: GP-AMC substrate; reference: Ki' DPP9 over Ki' DPP8): > 6
CC(C)[C@@H]1NC(=O)[C@H](Cc2ccccc2)NC(=O)CSC[C@@H](C(N)=O)NC(=O)[C@H](CCC(=O)O)NC(=O)[C@H](CO)NC(=O)[C@H](Cc2c[nH]c3cccc(Cl)c23)NC(=O)[C@H](C2CCCCC2)NC(=O)[C@H](C(C)C)NC(=O)[C@H](Cc2ccc(O)cc2)NC(=O)[C@H](CC(=O)O)NC(=O)[C@H](Cc2c[nH]c3ccccc23)NC(=O)[C@H](Cc2ccc(N)nc2)NC(=O)[C@H](Cc2c[nH]c3ccc(Cl)cc23)NC(=O)[C@H](CCC(=O)O)NC1=O — remaining activity (Interleukin-1 receptor-like 2 (IL1RL2, Homo sapiens, UniProt Q9HB29); reporter gene; HEK-Blue IL-36R; 33.33 µM, 6 h, with: IL-36γ 0.3 ng/mL; reference: control): 0.4%
CN(Cc1cc(C2CC2)on1)C(=O)c1cccc(-c2ccc3c(c2)CCO3)c1 — remaining activity (acetoacetyl-CoA synthetase (Cryptococcus neoformans); enzyme activity, inhibitor; 1.95 µM): 100%
Nc1ccn([C@@H]2O[C@H](COP(=O)(O)OP(=O)(O)OP(=O)(O)O)[C@@H](O)[C@H]2O)c(=O)n1 — Vmax (Genome polyprotein, NS5B (Hepatitis C virus genotype 1b, UniProt Q9WMX2); nucleotide incorporation, substrate): 0.72 fraction per time
O=C1c2sc(-c3ccc(N4CCC(F)C4)nc3F)nc2CCN1c1cccnc1 (stereo not shown) — SPR response (TAR DNA-binding protein 43, aggregated (TARDBP, Homo sapiens, UniProt Q13148); binding, surface plasmon resonance; brain-derived TDP-43 aggregates; 2.34 nM): 0.599 RU
